Published values of several laboratories.
Compare with care: the assays were run in different laboratories. Numbers after ± are the reported error.
CYP3A4: Cytochrome P450 3A4 (CYP3A4, Homo sapiens, UniProt P08684)
Chain of UniProt P08684 (whole entry, looked up): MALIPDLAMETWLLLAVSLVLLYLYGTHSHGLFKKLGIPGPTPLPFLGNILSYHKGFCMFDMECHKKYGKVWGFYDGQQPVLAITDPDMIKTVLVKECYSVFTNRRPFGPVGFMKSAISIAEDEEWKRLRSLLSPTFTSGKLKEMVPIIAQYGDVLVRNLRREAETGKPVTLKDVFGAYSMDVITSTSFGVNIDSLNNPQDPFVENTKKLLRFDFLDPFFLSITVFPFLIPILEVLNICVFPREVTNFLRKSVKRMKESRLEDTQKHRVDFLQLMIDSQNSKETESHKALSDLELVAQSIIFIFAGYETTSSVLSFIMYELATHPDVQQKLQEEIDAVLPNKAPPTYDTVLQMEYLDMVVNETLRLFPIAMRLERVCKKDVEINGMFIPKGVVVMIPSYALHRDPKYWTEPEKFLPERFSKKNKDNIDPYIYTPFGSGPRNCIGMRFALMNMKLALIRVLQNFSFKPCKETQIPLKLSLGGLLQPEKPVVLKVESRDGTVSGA
Chain of UniProt O60307 (whole entry, looked up): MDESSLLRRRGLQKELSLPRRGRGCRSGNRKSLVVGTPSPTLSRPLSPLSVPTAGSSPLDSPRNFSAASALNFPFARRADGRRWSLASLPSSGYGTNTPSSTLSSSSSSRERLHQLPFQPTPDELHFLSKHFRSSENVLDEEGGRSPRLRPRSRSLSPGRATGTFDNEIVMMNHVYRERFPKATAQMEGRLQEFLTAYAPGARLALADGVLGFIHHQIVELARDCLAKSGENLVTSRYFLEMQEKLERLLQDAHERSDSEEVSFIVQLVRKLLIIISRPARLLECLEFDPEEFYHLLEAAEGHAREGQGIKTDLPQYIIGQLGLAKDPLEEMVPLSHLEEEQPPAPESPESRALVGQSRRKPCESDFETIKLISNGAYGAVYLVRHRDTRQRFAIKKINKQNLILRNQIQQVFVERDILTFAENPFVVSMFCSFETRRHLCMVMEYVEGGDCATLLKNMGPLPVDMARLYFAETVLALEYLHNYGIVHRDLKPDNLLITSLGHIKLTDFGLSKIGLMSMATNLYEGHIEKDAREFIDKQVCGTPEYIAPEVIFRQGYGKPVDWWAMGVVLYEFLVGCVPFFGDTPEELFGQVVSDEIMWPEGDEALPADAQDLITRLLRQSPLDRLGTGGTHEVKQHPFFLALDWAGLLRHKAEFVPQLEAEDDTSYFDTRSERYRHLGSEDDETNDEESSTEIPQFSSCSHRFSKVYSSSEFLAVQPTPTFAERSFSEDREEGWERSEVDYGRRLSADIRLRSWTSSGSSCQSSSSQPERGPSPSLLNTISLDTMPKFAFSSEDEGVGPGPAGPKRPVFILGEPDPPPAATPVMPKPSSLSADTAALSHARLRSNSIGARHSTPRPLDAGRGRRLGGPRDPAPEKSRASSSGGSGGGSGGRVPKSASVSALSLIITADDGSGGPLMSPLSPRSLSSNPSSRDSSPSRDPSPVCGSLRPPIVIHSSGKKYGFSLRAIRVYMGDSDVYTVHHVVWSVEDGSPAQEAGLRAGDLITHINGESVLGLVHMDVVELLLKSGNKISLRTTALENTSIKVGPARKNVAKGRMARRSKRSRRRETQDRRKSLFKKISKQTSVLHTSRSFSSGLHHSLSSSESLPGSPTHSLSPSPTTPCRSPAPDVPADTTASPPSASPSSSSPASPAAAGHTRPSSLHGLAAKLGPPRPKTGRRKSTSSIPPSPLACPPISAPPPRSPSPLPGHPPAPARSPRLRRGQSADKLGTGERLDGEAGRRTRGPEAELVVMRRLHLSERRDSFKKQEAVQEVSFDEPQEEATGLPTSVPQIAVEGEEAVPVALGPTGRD
Chain of UniProt P21397 (whole entry, looked up): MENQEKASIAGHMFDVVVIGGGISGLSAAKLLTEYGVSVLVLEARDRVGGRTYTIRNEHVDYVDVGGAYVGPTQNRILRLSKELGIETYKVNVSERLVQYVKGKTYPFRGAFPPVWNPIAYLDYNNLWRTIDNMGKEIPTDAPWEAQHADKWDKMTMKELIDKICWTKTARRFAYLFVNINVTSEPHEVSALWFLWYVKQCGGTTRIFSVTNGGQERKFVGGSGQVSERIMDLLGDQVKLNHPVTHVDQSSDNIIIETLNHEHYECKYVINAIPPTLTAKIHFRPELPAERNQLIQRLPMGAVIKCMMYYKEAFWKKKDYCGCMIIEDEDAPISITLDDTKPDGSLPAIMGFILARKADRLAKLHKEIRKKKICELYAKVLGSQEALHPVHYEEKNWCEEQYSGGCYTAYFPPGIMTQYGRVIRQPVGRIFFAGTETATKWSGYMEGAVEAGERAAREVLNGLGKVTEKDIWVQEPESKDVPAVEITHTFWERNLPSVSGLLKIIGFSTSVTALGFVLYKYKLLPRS

For `CC[C@@H]1[C@H](F)C(=O)N[C@@H]1COc1nccc2cc(C(N)=O)c(OC)cc12`, the inhibition was 9.3% (Microtubule-associated serine/threonine-protein kinase 3 (MAST3, Homo sapiens, UniProt O60307); ATP-site probe binding, ActivX profiling; THP-1 cell lysate; 0.04 mM, Lys2 site).
The tissue uptake of `CC(C)C[C@H](NC(=O)C[C@H](O)[C@H](CC(C)C)NC(=O)[C@H](Cc1c[nH]cn1)NC(=O)CNC(=O)[C@@H](NC(=O)[C@H](C)NC(=O)[C@H](Cc1c[nH]c2ccccc12)NC(=O)[C@H](CCC(N)=O)NC(=O)[C@@H](Cc1ccccc1)NC(=O)COCCOCCNC(=O)CCC(C(=O)O)N1CCN(CC(=O)O)CCN(CC(=O)O)CCN(CC(=O)O)CC1)C(C)C)C(N)=O` (stereo partly drawn) [lutetium-177 labelled] is reported as 0.29 ± 0.05 %ID/g (BALB/c nu/nu mice, skin; intravenous, 100 pmol, 1 h, together with: PA 300 µg).
`C=CC(=O)N1C[C@H](Nc2ncnc3[nH]ccc23)CC[C@@H]1C`: “apparent oral clearance CL/F” 112 L/h (CYP3A; substrate; human; oral, 30 mg single dose, cpd alone).
With `CC(C)=CCc1c(O)cc(O)c2c1O[C@H](c1ccc(O)cc1)CC2=O` the inhibition was < 10% (human CYP2E1; 1 µM, pH 7.4).
The proteolytic conversion of `CC[C@H](C)[C@H](NC(=O)[C@H](Cc1ccc(O)cc1)NC(=O)[C@@H](NC(=O)[C@@H](N)CCCN=C(N)N)C(C)C)C(=O)N[C@@H](Cc1c[nH]cn1)C(=O)N1CCC[C@H]1C(=O)N[C@@H](Cc1ccccc1)C(=O)O` is reported as 48.3 ± 2.7% (chymotrypsin; LC-MS; 20 µM, 30 min, pH 7.4, 25 °C).
Under “cortisol level change”, `N#Cc1ccc2c(c1)[C@H]1CCCN(C(=O)c3ccc4[nH]cnc4c3)[C@H]1C2` is recorded as -116 nmol/L (human; 240 mg, end of trial; reference: baseline).
For `Cn1cc(-c2ccc(-c3cncc(Cl)c3N3CCC4(CCNC4=O)CC3)cc2)cn1`, “log2 fold change” read -3.27 (COLO 205; gene expression, microarray, item: CCL15 mRNA; concentration not given, 2 h; reference: untreated cells).
`CC[C@H]1[C@@H](O)[C@@H]2[C@H](CC[C@]3(C)[C@@H]([C@H](C)CCNC(=O)NS(=O)(=O)c4ccc(C(C)(C)C)cc4)CC[C@@H]23)[C@@]2(C)CC[C@@H](O)C[C@@H]12` gave an AUC(0-inf) of 408 ng·h/mL (CYP3A4; human, plasma; dose not given, geometric mean, alone).
`CC(C)=CCc1c(O)cc2c(c1O)C(=O)C[C@@H](c1ccc(O)cc1)O2` has an inhibition of < 10% (human CYP2E1; 1 µM, pH 7.4).
For `CC(C)(C(=O)N1CCOc2c(C#N)cncc2C1)C(F)F`, “accumulation ratio Cmax” read 1.71 (human, both sexes, plasma; oral, 20 mg twice daily, 14 days, multiple ascending dose; reference: day 14 over day 1).
`Cc1cc(Nc2ncnc3ccc(NC4=NC(C)(CO)CO4)cc23)ccc1Oc1ccn2ncnc2c1` (stereo not drawn) — result for “Cmax (arithmetic mean)”: 133 ng/mL (CYP3A4; human, plasma; tucatinib, day 6, together with: itraconazole).
For `Cc1oc2ccccc2c1Cc1cc(I)c(OCC(=O)O)c(I)c1`, “activation rate acceleration” read 1.8 ± 0.1 fold (Voltage-gated inwardly rectifying potassium channel KCNH2 (KCNH2, Homo sapiens, UniProt Q12809); potassium current, whole-cell patch clamp; HEK293 expressing hERG1; 10 µM, at 0 mV, together with: MTx 4 µM; reference: control).
For `NCc1cc2c(cc1F)C(=O)N(C1CCC(=O)NC1=O)C2` (stereo not drawn), the concentration was 7.9 µM (Amine oxidase [flavin-containing] A (MAOA, Homo sapiens, UniProt P21397); substrate, LC-MS/MS; recombinant enzyme; 10 µM, 8 h, pH 7.4).
`COc1ccc(F)cc1C(=O)NCc1ccc(-c2nn([C@@H](C)C(F)(F)F)c(N)c2C(N)=O)cc1` gave a Cmax of 4100 ng/mL (CYP3A4; human, both sexes, plasma; oral, 200 mg, single dose, together with: itraconazole).
`Nc1nnc(-c2cccc(Cl)c2Cl)c(N)n1` has a Km of 200 ± 10 µM (UGT1A, humanized; glucuronidation, Michaelis-Menten kinetics; Tg-UGT1 mice, male, DMSO control group, pooled liver microsomes; 30 min, pH 7.2).

For quick reference, copied from above:
`COc1ccc(F)cc1C(=O)NCc1ccc(-c2nn([C@@H](C)C(F)(F)F)c(N)c2C(N)=O)cc1` gave a Cmax of 4100 ng/mL (CYP3A4; human, both sexes, plasma; oral, 200 mg, single dose, together with: itraconazole).
`Nc1nnc(-c2cccc(Cl)c2Cl)c(N)n1` has a Km of 200 ± 10 µM (UGT1A, humanized; glucuronidation, Michaelis-Menten kinetics; Tg-UGT1 mice, male, DMSO control group, pooled liver microsomes; 30 min, pH 7.2).
